Results from different studies.
Parts stem from different laboratories: compare values within a part only. Changes are numbered by the printed parent chain.
Sequence of UniProt Q02156 (whole entry, looked up): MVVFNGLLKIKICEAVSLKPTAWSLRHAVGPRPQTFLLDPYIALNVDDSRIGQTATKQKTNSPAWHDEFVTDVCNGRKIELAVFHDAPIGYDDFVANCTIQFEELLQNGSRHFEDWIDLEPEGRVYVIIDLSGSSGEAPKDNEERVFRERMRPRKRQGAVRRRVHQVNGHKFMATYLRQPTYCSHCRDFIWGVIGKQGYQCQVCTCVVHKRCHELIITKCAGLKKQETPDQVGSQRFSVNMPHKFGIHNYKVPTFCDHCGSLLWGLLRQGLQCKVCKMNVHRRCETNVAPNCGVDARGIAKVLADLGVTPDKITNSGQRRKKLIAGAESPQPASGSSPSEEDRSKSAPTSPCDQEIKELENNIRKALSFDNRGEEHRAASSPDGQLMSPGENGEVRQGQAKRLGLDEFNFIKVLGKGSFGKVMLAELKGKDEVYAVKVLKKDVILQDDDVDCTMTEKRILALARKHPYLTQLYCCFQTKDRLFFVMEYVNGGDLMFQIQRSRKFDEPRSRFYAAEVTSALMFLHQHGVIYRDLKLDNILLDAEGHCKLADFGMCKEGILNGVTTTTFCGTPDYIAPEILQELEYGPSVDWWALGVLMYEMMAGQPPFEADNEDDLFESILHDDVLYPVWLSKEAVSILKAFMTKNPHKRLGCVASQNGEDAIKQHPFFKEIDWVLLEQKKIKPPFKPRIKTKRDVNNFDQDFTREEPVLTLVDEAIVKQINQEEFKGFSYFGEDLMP

Sample 1 — method: RNA Bind-n-Seq; form: RNA; medium: in vitro; concentration: 365 nM; reference: no-protein control; direction: higher = stronger binding
Target: RNA binding protein fox-1 homolog 2, RRM domain, GST-SBP tag (RBFOX2, Homo sapiens, UniProt O43251-10, residues 100-194)
Notes: natural RNA segment, single round, ends assumed
Constant ends, left off below: GGGAGUUCUACAGUCCGACGAUC … UGGAAUUCUCGGGUGCCAA
Construct (chain): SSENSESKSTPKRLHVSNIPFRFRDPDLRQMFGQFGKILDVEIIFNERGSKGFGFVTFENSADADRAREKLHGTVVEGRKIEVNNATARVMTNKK
For `AAGUUGGAUUAUAGAUUAUAACGUAGAGUUGGUUUGUAGGGCCAAAUAAUCAGAGGACAUGCAAUAAGGCAAGGCUGAGUGGAAAAUAGAGGUUCAAGGGCCUAGGUAGG`, “RBNS enrichment (R)” read 1.22.
`UUUAUAAGACUGUGUCUUGUUCACCAGUGAGAGAGGGCUGAGGUCAUUACUCACCUGGCACAGACGGCCUAAAUGCAAUCCCCAGCACAAAAAGAGACUGCCUACAAAUU` — result for “RBNS enrichment (R)”: 0.192.
`GGGCAGCCCCAGCCCUGGGAACCUCUCCCACUACACCCACAAGACGCCACCAUGAAGCCUCAAAAGGUUCAGUAUUAAGGGUUUUAACCGAAAAGAGUUUAACCAGCCCA` — result for “RBNS enrichment (R)”: 0.326.
For `CUUGACCCCAUUUAUGUGUAGGAGCACUACACCAUUGGUUUCCAAUACUGCACACAUAAGAUACAUACUUGUGUGCAGAAAGUAUCUUCCUCCAGGCUUGUAAUACCCUU`, “RBNS enrichment (R)” read 0.361.
For `AAUAUUCUGUAACUCAGCCAGGCAAGGUAGCUCAUGCCUGUGAUCCCAGCAUUUGGGAAACAGAGGCAAGAGGAUUGCUGCAAGUUUAAGGCCAGCCUGUCUACAUAGGG`, “RBNS enrichment (R)” read 0.81.
For `GAGACGAAGCUGUGUCAUCAAGAGCUCAGUGGGUGCGAGGAAAGUAUGAUCCAGCGCUCAGCCUUCGCUCUAGGAUGCUGUGGUCCCCAUUCCCAGUUCCUCCAGUGCCA`, “RBNS enrichment (R)” read 2.09.
For `UCACAGACCUCAGUCAUGUGAUAAGCUAUGUUAUGGUUCUUUAUCUGUUUAAAAUAUGGAAUCUUCACUCCCGCUGCCUCUGUUUCUUGGACUCCAUGACGAUUUCAGAA`, “RBNS enrichment (R)” read 0.345.
Under “RBNS enrichment (R)”, `GCUGGAAACCUGAGUGACCCUCCCUCCCCACCAAGAGUCCACAGACCUUUCAUCUUUCACGAACUUGAUCCUGUUAGCAGGUGGUAAUACCAUGGGUGCUGUGACACUAA` is recorded as 0.363.

Sample 2 — method: RNA Bind-n-Seq; form: RNA; medium: in vitro; concentration: 20 nM; notes: 6-mer, flanks averaged, single round; together with: 150 mM KCl; reference: input library; direction: higher = stronger binding
Target: TAR DNA-binding protein 43, full length, His tag (TARDBP, Homo sapiens, UniProt Q13148, residues 1-414)
`ACACGG` — result for “6-mer enrichment (R)”: 1.1.
`CCAUCA`: “6-mer enrichment (R)” 0.594.
Under “6-mer enrichment (R)”, `UAUAUA` is recorded as 0.624.
`CGCGUU` — result for “6-mer enrichment (R)”: 0.719.
`GUUCCC`: “6-mer enrichment (R)” 0.64.
`UCGUGC`: “6-mer enrichment (R)” 0.75.
For `GACGCG`, “6-mer enrichment (R)” read 1.68.
`UGCCUA` — result for “6-mer enrichment (R)”: 0.649.

Sample 3 — method: DHFR PCA, deep sequencing; medium: yeast; together with: (+)-ABA 17 µM; reference: wild-type fitted maximum; direction: higher = stronger binding
Target: ABI1, truncated, D143A, DHFR fusion (Arabidopsis thaliana)
Notes: methotrexate growth selection, single substitutions
Parent: PYL1, truncated, DHFR fusion (Arabidopsis thaliana); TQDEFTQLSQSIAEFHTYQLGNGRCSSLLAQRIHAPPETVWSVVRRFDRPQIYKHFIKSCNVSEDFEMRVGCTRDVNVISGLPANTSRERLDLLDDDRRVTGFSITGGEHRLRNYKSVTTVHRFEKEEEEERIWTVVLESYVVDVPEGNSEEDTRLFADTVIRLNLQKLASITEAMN
`D65E` — result for “relative binding score”: 82.3%.
For `E38D`, “relative binding score” read 79.7%.
`A35Y` — result for “relative binding score”: -5.76%.
Under “relative binding score”, `F15I` is recorded as 33.3%.
`K168L` — result for “relative binding score”: 16.5%.
For `G81S`, “relative binding score” read 27%.
`T120Q` — result for “relative binding score”: 6.04%.
`S171L` — result for “relative binding score”: 81.1%.

Further values, each from its own experiment
`CS(=O)(=O)CCNCc1ccc(-c2ccc3ncnc(Nc4ccc(OCc5cccc(F)c5)c(Cl)c4)c3c2)o1` has a remaining activity of 98% (Protein kinase C epsilon type (PRKCE, Homo sapiens, UniProt Q02156); enzyme activity, inhibitor; 0.5 µM; reference: control).

Some of these lines once more (sample 2):
`GUUCCC`: “6-mer enrichment (R)” 0.64.
`CCAUCA`: “6-mer enrichment (R)” 0.594.
`UGCCUA` — result for “6-mer enrichment (R)”: 0.649.
`UCGUGC`: “6-mer enrichment (R)” 0.75.
